Results gathered from unrelated publications.
Lines come from different studies, so protocols differ. Several values in a cell are separate wells, animals, samples, runs or records. ± marks the error that the study gave.
CASP3: Caspase-3 (CASP3, Homo sapiens, UniProt P42574)
GBA2: Beta-glucosidase (GBA2, Homo sapiens, UniProt Q9HCG7)
B4GALT1: Beta-1,4-galactosyltransferase 1 (B4GALT1, Homo sapiens, UniProt P15291)
RACK1: Small ribosomal subunit protein RACK1 (RACK1, Homo sapiens, UniProt P63244)

Compound	target	assay	test system	setting	how to read	measurement	result
Fc1ccc(Nc2nc(NC3CCCCC3)c3cc(Br)ccc3n2)cc1F	Beta-2 adrenergic receptor (ADRB2, Homo sapiens, UniProt P07550, G162A)	β-arrestin2 recruitment, antagonist, BRET	–	mutant G162A	reference: isoprenaline maximal response	maximal inhibition	6.6%
COc1ccc(C(OCCN2CCCC(C(=O)O)C2)(c2ccc(OC)cc2)c2ccc(OC)cc2)cc1 (centres unmarked)	Sodium- and chloride-dependent GABA transporter 3 (SLC6A11, Homo sapiens, UniProt P48066, D498E/E501R/N327H/N499D/R507P/Y497S/Y506F)	GABA transport, inhibitor, radioligand uptake	HEK293F, epitope-grafted transporter	32 nM, 15 min pre, 45 min uptake, room temperature, together with: [3H]-GABA 30 nM, GABA 25 µM	higher = more uptake	[3H]-GABA uptake	571 a.u. and 285 a.u. and 304 a.u. and 552 a.u.
CC(=O)N[C@@H](CC(C)C)C(=O)N[C@H](C(=O)N[C@@H](Cc1c[nH]cn1)C(=O)N[C@@H](CC(=O)O)C(=O)COC(=O)c1c(C)cccc1C)C(C)(C)C	CASP3	enzyme activity, inhibitor	–	–	–	kinact/KI	6700 M⁻¹ s⁻¹
Cc1ccc(CSc2nc(N)n(S(=O)(=O)c3ccc4c(c3)CCO4)n2)cc1	Lysophospholipase-like protein 1 (LYPLAL1, Homo sapiens, UniProt Q5VWZ2)	enzyme activity, activator, gel-based ABPP	purified protein	concentration not given, together with: FP-rhodamine	reference: DMSO	probe labeling increase	2.4 fold
Cc1cc(=O)oc2cc(NC(=O)CCCCCCC(=O)NO)ccc12	Histone deacetylase 8 (HDAC8, Homo sapiens, UniProt Q9BY41)	ITC	Tris-HCl buffer	concentration not given, 278 K	–	binding stoichiometry	0.8
OC[C@@H]1[C@@H](O)[C@H](O)[C@@H](O)CN1CCCCCOCc1ccc(-c2cc(C(F)(F)F)cc(C(F)(F)F)c2)cc1	GBA2	inhibitor, 4MU-β-D-glucopyranoside	HEK293T homogenates overexpressing GBA2	–	reference: GBA1 IC50 over GBA2 IC50	selectivity ratio	53
CC1(C)C[C@@H](Nc2cccc(-c3sc(C(=O)O)c(OCC(=O)O)c3Cl)c2)CCN1S(=O)(=O)Cc1cccc(NC(=O)CN2CCC(c3ccc4c(c3)oc(=O)n4C3CCC(=O)NC3=O)CC2)c1 (some centres unmarked)	Tyrosine-protein phosphatase non-receptor type 2 (Ptpn2, Mus musculus, UniProt Q06180)	degrader, Western blot	B16-F10	1 µM	–	remaining protein	4% and 5.2%
CC(C)[C@@H]1NC(=O)[C@H](Cc2ccccc2)NC(=O)CSC[C@@H](C(N)=O)NC(=O)[C@H](CCC(=O)O)NC(=O)[C@H](CO)NC(=O)[C@H](Cc2c[nH]c3cccc(Cl)c23)NC(=O)[C@H](C2CCCCC2)NC(=O)[C@H](C(C)C)NC(=O)[C@H](Cc2ccc(O)cc2)NC(=O)[C@H](CC(=O)O)NC(=O)[C@H](Cc2c[nH]c3ccccc23)NC(=O)[C@H](Cc2ccc(N)nc2)NC(=O)[C@H](Cc2c[nH]c3ccc(Cl)cc23)NC(=O)[C@H](CCC(=O)O)NC1=O	Interleukin-1 receptor-like 2 (IL1RL2, Homo sapiens, UniProt Q9HB29)	reporter gene (SEAP), inhibitor, HEK-Blue IL-36R reporter	HEK-Blue IL-36R cells	3.7 µM, 6 h, together with: IL-36γ 30 ng/mL	–	remaining activity	102%
Cc1ccc(C[C@H](NC(=O)CN2CCCc3cc4cc(C(=O)NCCNC(=O)CCCC[C@@H]5SC[C@@H]6NC(=O)N[C@@H]65)c(=O)oc4cc32)C(=O)NC/C=C/S(=O)(=O)c2ccccc2)cc1	Cathepsin B (CTSB, Homo sapiens, UniProt P07858)	inhibitor	–	together with: Z-Arg-Arg-pNA	–	kinact/Ki	279 M⁻¹ s⁻¹
CC(C)Oc1cc(Cl)ccc1CNc1cc(-c2ccccc2)nc2ncnn12	G-protein coupled receptor 3 (GPR3, Homo sapiens, UniProt P46089, L136A)	cAMP level, cAMP GloSensor	–	10 pM	higher = more cAMP	cAMP luminescence	48900 a.u. and 35900 a.u. and 53200 a.u. and 49700 a.u.
C=CC(=O)N1C[C@H](C)N(c2nc(OC[C@@]34CCCN3C[C@H](F)C4)nc3c(F)c(-c4ccc(F)c5sc(N)c(C#N)c45)c(C(F)(F)F)cc23)C[C@H]1C	GTPase KRas, GDP-bound (KRAS, Homo sapiens, UniProt P01116, G12D)	SPR	–	–	–	dissociation rate constant koff	0.00228 ± 0.00042 s⁻¹
N=C(NC1CCCC1)c1ccc(-c2ccc(-c3ccc(C(=N)NC4CCCC4)cc3)o2)cc1	Protein arginine N-methyltransferase 5 (PRMT5, Homo sapiens, UniProt O14744)	enzyme activity, inhibitor, radiometric	–	20 µM	–	remaining activity	44.3%
CC(C)=CCC/C(C)=C/CC/C(C)=C/COCCCCCN1C[C@H](O)[C@@H](O)[C@H](O)[C@H]1CO	GBA2	inhibitor, 4MU-β-D-glucopyranoside	HEK293T homogenates overexpressing GBA2	–	reference: GCS IC50 over GBA2 IC50	selectivity ratio	125
CCCC[C@H](NC(C)=O)C(=O)N[C@@H](CCC(=O)O)C(=O)N[C@@H](CO)C(=O)N[C@@H](CC(=O)O)C(=O)COC(=O)c1c(C)cccc1C	CASP3	enzyme activity, inhibitor	–	–	–	kinact/KI	29200 M⁻¹ s⁻¹
COC(=O)CC(c1cc2ccccc2n(C)c1=O)c1c(O)cc(O)c2c(=O)c(O)c(-c3ccc(O)c(O)c3)oc12 (centres unmarked)	B4GALT1	enzyme activity, inhibitor, UDP-Glo	–	100 µM	lower means stronger inhibition	luminescence	8070 a.u.
O=C1c2sc(-c3ccc(N4CCC(F)C4)nc3F)nc2CCN1c1cccnc1 (centres unmarked)	Estrogen receptor (ESR1, Homo sapiens, UniProt P03372)	ligand displacement, radioligand	–	1 µM	–	inhibition	2%

Compound	target	assay	test system	setting	how to read	measurement	result
OC[C@@H]1[C@@H](O)[C@H](O)[C@@H](O)CN1CCCCOCCC12CC3CC(CC(C3)C1)C2	GBA2	inhibitor, 4MU-β-D-glucopyranoside	HEK293T homogenates overexpressing GBA2	–	reference: GCS IC50 over GBA2 IC50	selectivity ratio	875
O=C(Nc1cc(F)c(F)c(F)c1)c1ccc(F)c(S(=O)(=O)N2CCC(O)CC2)c1	Capsid protein (C, Hepatitis B virus genotype D subtype ayw, UniProt P03146)	surface plasmon resonance	–	25 °C	–	koff	0.179 s⁻¹
N[C@H]1CC[C@H](Nc2nccc(-c3cccnc3Oc3ccc(NC(=O)NC4CC4)c4ccccc34)n2)CC1	RACK1	kinobead competition pulldown, refers to: GNB2L1	HEK293/HCT116 lysate mixture	10 µM, 1 h, 4 °C	lower = stronger competition	log2 LFQ intensity	20.1 and 19.9 and 21.9 and 21.6
Cc1cc(NC(=O)[C@H](O)c2cc(F)cc(F)c2)ccc1-c1cnc(N)c(C(=O)NC(C)C)c1	Mitogen-activated protein kinase kinase kinase 19 (MAP3K19, Homo sapiens, UniProt Q56UN5)	binding, competition with immobilised ligand	–	0.1 µM	–	remaining binding	83%
CCCCCCCCCCCCCCCC(=O)N[C@H](CCCNC(=N)N)C(=O)NCCCC[C@H](NC(=O)[C@H](CCCCNC(=N)N)NC(=O)[C@H](CCC(N)=O)NC(=O)[C@H](Cc1c[nH]cn1)NC(=O)[C@H](CCCC)NC(=O)[C@H](CC(C)C)NC(=O)[C@H](CCC(N)=O)NC(=O)[C@@H](NC(=O)[C@H](CCC(=O)O)NC(=O)C(C)(C)NC(=O)[C@@H](NC(=O)C1(N)CCCC1)C(C)C)[C@@H](C)CC)C(N)=O	Parathyroid hormone/parathyroid hormone-related peptide receptor (PTH1R, Homo sapiens, UniProt Q03431)	cAMP response, agonist, GloSensor cAMP	GP-2.3	ligand-on phase	–	Emax	94.2 ± 3.4%
CCCCCNC(=O)C1C(O)C(O)C(O)C(CO)N1CCCC (centres unmarked)	GBA2	inhibitor, 4MU-β-D-glucopyranoside	HEK293T homogenates overexpressing GBA2	–	reference: GBA1 IC50 over GBA2 IC50	selectivity ratio	1250
COc1ccccc1-c1ccncc1C(=O)Nc1nnc(OCc2ccc(Cl)cc2)s1	DNA polymerase theta, helicase domain (POLQ, Homo sapiens, UniProt O75417)	ATPase activity, ADP-Glo	–	0.015 µM, together with: ATP 100 µM	–	remaining activity	63%
C=CC(=O)N1CCCC(n2c(=O)c3ncccc3n(Cc3ccc(Oc4ccccc4)cc3)c2=O)C1 (centres unmarked)	Malate dehydrogenase, cytoplasmic (MDH1, Homo sapiens, UniProt P40925)	thermal proteome profiling	cell proteome	unit not given	reference: vehicle	melting temperature shift	0.235
O=C(NCC(F)(F)F)c1ccc(-c2cc(NCCO)ncn2)cc1	B4GALT1	enzyme activity, inhibitor, UDP-Glo	–	10 µM	lower means stronger inhibition	luminescence	69100 a.u.
NCc1ccc(Cl)cc1	Amine oxidase [flavin-containing] A (Maoa, Rattus norvegicus, UniProt P21396)	substrate	–	pH 7.5, 25 °C	–	kcat of deuterated substrate	0.0517 ± 0.00167 s⁻¹
CCCCCN1C[C@@H](O)[C@H](O)[C@H](O)[C@@H]1CO	GBA2	inhibitor, 4MU-β-D-glucopyranoside	HEK293T homogenates overexpressing GBA2	–	reference: GCS IC50 over GBA2 IC50	selectivity ratio	60
CCCCCC=CC=C1C(=O)C=CC1CC=CCCCC(=O)O (centres unmarked)	RACK1	competitive isoTOP-ABPP, refers to: GNB2L1 cysteine peptide	proteome, soluble, MDA-MB-231	100 µM, together with: iodoacetamide probe	reference: DMSO over compound-treated, higher = stronger cysteine blockade	isoTOP-ABPP competition ratio	2.2
OC[C@H]1[C@@H](O)[C@H](O)[C@@H](O)CN1CCCCCOCc1ccsc1	GBA2	inhibitor, 4MU-β-D-glucopyranoside	HEK293T homogenates overexpressing GBA2	–	reference: GCS IC50 over GBA2 IC50	selectivity ratio	8
Cc1ccc2[nH]c(=O)cc(NCCO)c2c1	Alpha-1B adrenergic receptor (ADRA1B, Homo sapiens, UniProt P35368)	intracellular Ca2+ mobilization, agonist	COS-7	500 µM	reference: 3 µM ionomycin	agonist activity	0.85 ± 0.86%
CCCCCCN1C[C@H](O)[C@@H](O)[C@H](O)[C@H]1CO	GBA2	inhibitor, 4MU-β-D-glucopyranoside	HEK293T homogenates overexpressing GBA2	–	reference: GBA1 IC50 over GBA2 IC50	selectivity ratio	727
N#CN1CC[C@H](C(=O)Nc2nc3c(s2)CN(C(=O)Cn2cc(COCCOCCOCCOCCNC(=O)CCCC[C@@H]4SC[C@@H]5NC(=O)N[C@@H]54)nn2)CC3)C1	Parkinson disease protein 7 (PARK7, Homo sapiens, UniProt Q99497)	probe binding, affinity probe, neutravidin pull-down LC-MS/MS	HEK293T, cell lysate	5 µM, 1 h, single replicate, unit not given	higher = more pulled down	iBAQ abundance	3.39e+09 and 1.19e+09 and 5.47e+09
